Results from different studies.
Parts stem from different laboratories: compare values within a part only.
Chain of UniProt P41279 (whole entry, looked up): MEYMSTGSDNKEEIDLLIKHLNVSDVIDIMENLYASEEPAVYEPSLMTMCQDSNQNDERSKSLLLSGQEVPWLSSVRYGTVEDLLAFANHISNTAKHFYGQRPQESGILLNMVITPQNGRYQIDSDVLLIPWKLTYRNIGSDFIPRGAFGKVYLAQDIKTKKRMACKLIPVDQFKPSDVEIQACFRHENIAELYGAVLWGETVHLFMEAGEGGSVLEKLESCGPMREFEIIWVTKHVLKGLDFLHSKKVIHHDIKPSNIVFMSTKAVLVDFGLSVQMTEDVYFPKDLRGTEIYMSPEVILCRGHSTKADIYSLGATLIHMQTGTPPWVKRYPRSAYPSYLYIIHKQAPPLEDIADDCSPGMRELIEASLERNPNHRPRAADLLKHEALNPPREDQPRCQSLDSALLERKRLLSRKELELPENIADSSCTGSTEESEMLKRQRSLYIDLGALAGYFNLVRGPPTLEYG

Study 1
Target: Centromere-binding protein 1, full length, His-tagged (CBF1, Saccharomyces cerevisiae, UniProt P17106, residues 1-351)
Chain of UniProt P17106 (whole entry, looked up): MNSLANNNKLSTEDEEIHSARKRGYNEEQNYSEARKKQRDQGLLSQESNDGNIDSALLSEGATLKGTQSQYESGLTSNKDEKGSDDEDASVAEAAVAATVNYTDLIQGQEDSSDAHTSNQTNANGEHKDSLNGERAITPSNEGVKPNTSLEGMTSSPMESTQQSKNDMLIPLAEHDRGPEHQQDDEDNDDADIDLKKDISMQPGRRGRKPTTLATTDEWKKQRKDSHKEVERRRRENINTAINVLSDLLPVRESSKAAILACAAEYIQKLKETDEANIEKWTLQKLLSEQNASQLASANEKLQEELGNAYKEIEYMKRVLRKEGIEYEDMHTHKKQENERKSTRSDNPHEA
Technique: competition protein-binding microarray
Form: double-stranded DNA, one strand shown
Matrix: in vitro
Tested at: 2 µM
Setting: whole 60-bp probe, lowest competitor level
Added: Pho4 competitor, 0.05 µM
Reading: higher = stronger binding
Measurement: fluorescence intensity
Oligonucleotide = GGAAACTTTTTAAAGCACGTGGAAGAGATATGAAGGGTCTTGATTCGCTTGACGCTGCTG; result = 2030 a.u.
Oligonucleotide = TGCCTTACTCGGTATCACATGGAAAAGACCCCCGGCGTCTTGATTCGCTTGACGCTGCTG; result = 226 a.u.
Oligonucleotide = TTTTGCTCAAACGGTCGCGTGCTAAGCGGAACGAGAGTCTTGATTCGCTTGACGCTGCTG; result = 163 a.u.
Oligonucleotide = GTCAACCTGCTGCCTGGCGTGCTTTGACTCAGTACAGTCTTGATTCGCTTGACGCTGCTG; result = 70.8 a.u.
Oligonucleotide = CGGGGTTAAGTTTGTCACTTAACTTGCTTGCAGCAGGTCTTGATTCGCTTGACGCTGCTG; result = 77.1 a.u.
Oligonucleotide = AAAGAACTACTGTCCCACGTGGATTCGATCCCTCCCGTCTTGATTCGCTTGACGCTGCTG; result = 473 a.u.
Oligonucleotide = CTTTCCCGATCTTTTCACGTGGCGTTAGCACATTTGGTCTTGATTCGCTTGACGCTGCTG; result = 780 a.u.
Oligonucleotide = AAAGCGGTAATTTGTTGTGTGGGTGCAGATATCTATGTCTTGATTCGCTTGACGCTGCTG; result = 82 a.u.

Study 2
Target: Protein C-ets-1 (ETS1, Homo sapiens, UniProt P14921, residues 1-441, K379A, full length assumed)
Technique: protein-binding microarray
Form: double-stranded DNA, one strand shown
Matrix: in vitro
Tested at: not given
Setting: k-mer, scored over probes, only values ≥0.25
Reading: higher = stronger binding
Measurement: E-score
Target sequence (chain): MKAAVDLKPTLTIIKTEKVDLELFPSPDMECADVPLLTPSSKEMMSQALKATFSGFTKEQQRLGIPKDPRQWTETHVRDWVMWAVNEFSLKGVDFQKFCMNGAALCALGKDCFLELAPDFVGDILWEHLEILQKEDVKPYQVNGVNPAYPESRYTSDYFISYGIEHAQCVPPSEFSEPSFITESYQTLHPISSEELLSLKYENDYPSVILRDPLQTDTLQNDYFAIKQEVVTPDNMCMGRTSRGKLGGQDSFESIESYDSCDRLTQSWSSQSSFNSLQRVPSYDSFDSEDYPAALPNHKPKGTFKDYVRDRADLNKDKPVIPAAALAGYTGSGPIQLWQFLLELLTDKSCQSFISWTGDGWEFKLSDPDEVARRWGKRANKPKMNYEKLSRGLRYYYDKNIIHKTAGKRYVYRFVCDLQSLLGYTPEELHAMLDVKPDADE
Oligonucleotide = GACACAAA; result = 0.294
Oligonucleotide = CGACAATC; result = 0.261
Oligonucleotide = AAGCCGGA; result = 0.277
Oligonucleotide = ACCACAAA; result = 0.296
Oligonucleotide = GTGGTACA; result = 0.264
Oligonucleotide = CAATCCCG; result = 0.337
Oligonucleotide = GACCGACA; result = 0.452
Oligonucleotide = CCTATCCC; result = 0.275

Study 3
Target: Histone acetyltransferase KAT6A, winged helix 2, GST fusion (KAT6A, Homo sapiens, UniProt Q92794, residues 85-181)
Technique: protein binding microarray
Form: double-stranded DNA, one strand shown
Matrix: in vitro
Tested at: not given
Setting: 8-mer, flanks averaged, mean of 2 arrays, mostly near background
Baseline: not given
Reading: higher = stronger binding
Measurement: E-score
Residues (chain): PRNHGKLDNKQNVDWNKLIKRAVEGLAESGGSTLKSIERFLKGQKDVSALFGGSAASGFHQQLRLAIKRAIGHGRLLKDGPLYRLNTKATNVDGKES
Oligonucleotide = AAACGTTT; result = -0.182
Oligonucleotide = TCGCTCCA; result = 0.0172
Oligonucleotide = AATTCCGT; result = -0.0778
Oligonucleotide = CTATCGAC; result = -0.135
Oligonucleotide = TAACTTGA; result = -0.0109
Oligonucleotide = CACAAGTA; result = -0.302
Oligonucleotide = CCATACAC; result = -0.0986
Oligonucleotide = GCTAAGGA; result = -0.0226

Further values, each from its own experiment
Structure (SMILES) = NC(=O)c1ccc(N(C(N)=O)c2c(F)cccc2F)nc1-c1ccc(F)cc1F; target = Mitogen-activated protein kinase kinase kinase 8 (MAP3K8, Homo sapiens, UniProt P41279); assay = enzyme activity, inhibitor; conditions = 0.5 µM; scale = baseline: control; measurement = remaining activity; result = 94.3%

Repeated from above (study 1):
Oligonucleotide = TGCCTTACTCGGTATCACATGGAAAAGACCCCCGGCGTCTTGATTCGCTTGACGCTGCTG; result = 226 a.u.
Oligonucleotide = TTTTGCTCAAACGGTCGCGTGCTAAGCGGAACGAGAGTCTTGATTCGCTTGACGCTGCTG; result = 163 a.u.
